# Measured values of several laboratories.
# Each numbered part is a random draw from the data of one study; scales do not carry over between parts. Substitutions count along the parent as printed.

# Study 1 — target: CCNE2, cyclin fold, Cln2 fusion (human); method: yeast growth competition, sequencing; medium: yeast; notes: strong parent motif; relative to: not given; reading: higher = stronger binding
# Starting sequence: CDKN1A docking peptide (human); SKACRRLFGPVDS; partner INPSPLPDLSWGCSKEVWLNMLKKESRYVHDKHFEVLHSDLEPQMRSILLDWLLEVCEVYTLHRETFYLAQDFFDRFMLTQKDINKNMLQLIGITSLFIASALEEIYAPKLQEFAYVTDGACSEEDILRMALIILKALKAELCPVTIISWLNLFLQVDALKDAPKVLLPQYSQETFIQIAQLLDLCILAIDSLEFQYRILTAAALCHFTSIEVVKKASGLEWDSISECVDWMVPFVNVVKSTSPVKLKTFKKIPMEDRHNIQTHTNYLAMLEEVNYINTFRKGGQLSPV
Change,normalised enrichment score
R6T,1.39
G9I,3.55
F8T,-0.18
R6M,1.86
R6C,1.64
L7P,0.477
R5T,0.34
G9N,3.46
L7F,0.561
G9W,3.8
V11P,3.82
C4P,0.512
V11N,4.16
K2S,3.97
F8A,-0.114
C4K,3.82
V11S,4.2
V11Q,4.25
D12C,2.59
L7S,0.27
P10Y,2.77
A3P,1.73

# Study 2 — method: protein-binding microarray; form: double-stranded DNA, one strand shown; medium: in vitro; tested at: 940 nM top; notes: 60-bp whole probe; with: salmon DNA 0.4 mg/ml; relative to: random background probes; reading: higher = stronger binding; shared flanks, not repeated: GCCTAGCAC … GTCTTGATTCGCTTGACGCTGCTG
# Target: Interferon regulatory factor 5, full length, phosphomimetic (IRF5, Homo sapiens, UniProt Q13568-2, residues 1-514, S451D/S453D/S456D/S462D)
Strand,fitted relative affinity
TTAGGACTGGACACTGGGTTGGTGCTA,-0.118 z-score
GACGATTTCAGTTTGGAGACGTGCTAG,0.452 z-score
TTAGGTCTCGGTCTCGGTTAGTGCTAG,5.83 z-score
TACTGGACTGGGGTTTCCCGGTGCTAG,-0.445 z-score
GTAGAACTGAGACTGGATTAGTGCTAG,-0.154 z-score
GACGGTATCGGGGATCGGGACGTGCTA,2.98 z-score
TTAGGTATCCGACTGGGTTAGTGCTAG,-0.151 z-score
GACGGACTGGGACTGGGGACGTGCTAG,-0.596 z-score
TACAGGATGGTTTTCAGAGAGTGCTAG,-0.102 z-score
GACGGTAGCGGTATCGGGACGTGCTAG,1.66 z-score
GACGGTATCCTACTGTTGACGTGCTAG,-0.202 z-score
TCAAGTTGGACCTCTCAGACTGTGCTA,-0.474 z-score
TTAGGGCTGGGTTTCGGTTAGTGCTAG,7.26 z-score
GACGATATCGGGTATCTAGACGTGCTA,-0.293 z-score
GACGGTTTCCGTTCCGGGACGTGCTAG,1.88 z-score
TCATTTTTTTAATTGAGACTGTGCTAG,0.402 z-score
TTAGATATCGGGTTGCGATTAGTGCTA,0.536 z-score
TTAGCACTGGGTTTCGGTTAGTGCTAG,6.33 z-score
TTAGGACTGGACTTCCGGTTAGTGCTA,-0.0886 z-score

# Study 3 — method: universal PBM; form: double-stranded DNA, one strand shown; medium: in vitro; tested at: 600 nM; reading: higher = stronger binding
# Target: Sal-like protein 4, full length isoform A (SALL4, Homo sapiens, UniProt Q9UJQ4, residues 1-1053)
# Chain of UniProt Q9UJQ4 (whole entry, looked up): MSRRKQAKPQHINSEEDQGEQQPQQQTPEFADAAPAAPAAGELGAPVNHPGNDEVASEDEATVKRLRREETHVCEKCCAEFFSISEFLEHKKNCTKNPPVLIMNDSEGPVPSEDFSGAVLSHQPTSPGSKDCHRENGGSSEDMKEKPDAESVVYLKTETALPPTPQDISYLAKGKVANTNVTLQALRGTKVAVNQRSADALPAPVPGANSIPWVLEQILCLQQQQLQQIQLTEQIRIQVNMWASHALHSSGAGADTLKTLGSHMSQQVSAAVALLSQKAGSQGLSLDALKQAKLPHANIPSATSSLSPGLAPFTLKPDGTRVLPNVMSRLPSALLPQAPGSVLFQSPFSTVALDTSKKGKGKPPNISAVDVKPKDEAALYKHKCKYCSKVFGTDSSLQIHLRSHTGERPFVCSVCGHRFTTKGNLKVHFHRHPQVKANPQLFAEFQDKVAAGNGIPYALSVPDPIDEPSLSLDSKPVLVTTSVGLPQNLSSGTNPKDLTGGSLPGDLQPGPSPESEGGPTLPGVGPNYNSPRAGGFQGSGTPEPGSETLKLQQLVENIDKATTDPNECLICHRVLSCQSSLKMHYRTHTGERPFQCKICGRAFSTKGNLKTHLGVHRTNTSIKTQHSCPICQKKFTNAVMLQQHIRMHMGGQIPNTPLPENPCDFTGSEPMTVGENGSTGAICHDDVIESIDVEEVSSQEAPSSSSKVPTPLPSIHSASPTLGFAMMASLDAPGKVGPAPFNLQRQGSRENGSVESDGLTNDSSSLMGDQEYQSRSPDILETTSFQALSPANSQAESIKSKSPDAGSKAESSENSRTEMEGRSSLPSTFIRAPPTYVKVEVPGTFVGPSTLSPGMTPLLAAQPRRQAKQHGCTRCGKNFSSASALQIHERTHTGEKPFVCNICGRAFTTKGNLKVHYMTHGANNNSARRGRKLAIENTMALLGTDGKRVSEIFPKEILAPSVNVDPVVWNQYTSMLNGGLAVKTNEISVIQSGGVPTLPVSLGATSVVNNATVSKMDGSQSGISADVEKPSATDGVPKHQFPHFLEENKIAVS
# Notes: 8-mer, flanks averaged, mean of replicates
Strand,E-score
AAGACTCT,0.11
GTGATGAA,0.0405
CCCCTTTA,-0.0999
AATTGATG,0.322
ACCCCAAG,-0.249
AGGGGGAG,-0.21
CGCAAAGA,0.0421
AGGAGGCG,-0.221
CTATCACA,0.197
CACGTTCG,-0.0644
CTGCGCAG,-0.208
ACTCACCT,-0.192
GGCTTCCC,-0.212
AAATATCT,0.326
TCCCTCCA,-0.213
CCGCGGGC,-0.376
ATTCCCAC,0.02

# Study 4 — method: DHFR PCA, deep sequencing; medium: yeast; with: (+)-ABA 58 µM; relative to: wild-type fitted maximum; reading: higher = stronger binding
# Target: ABI1, truncated, D143A, DHFR fusion (Arabidopsis thaliana)
# Notes: methotrexate growth selection, single substitutions
# Starting sequence: PYL1, truncated, DHFR fusion (Arabidopsis thaliana); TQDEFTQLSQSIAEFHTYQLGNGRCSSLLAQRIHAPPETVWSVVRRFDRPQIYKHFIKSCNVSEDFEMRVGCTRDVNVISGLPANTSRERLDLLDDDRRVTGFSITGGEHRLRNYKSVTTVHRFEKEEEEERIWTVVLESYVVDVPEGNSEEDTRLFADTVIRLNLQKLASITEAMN
Change,relative binding score
T6Q,96.7%
K168C,79.7%
F15E,30.6%
R163F,11.1%
E151V,85.1%
G21W,77.3%
V121K,-4.37%
T101D,-7.74%
R69C,82.8%
S117G,21.5%
H110E,5.82%
I33S,6.74%
K126H,95.2%
L20I,89.4%
L156S,81.5%
D3I,86.1%

# Study 5 — method: protein binding microarray; form: double-stranded DNA, one strand shown; medium: in vitro; tested at: not given; relative to: not given; reading: higher = stronger binding
# Target: Histone acetyltransferase KAT6A, winged helix 1, GST fusion (KAT6A, Homo sapiens, UniProt Q92794, residues 1-85)
# Notes: 8-mer, flanks averaged, mean of 2 arrays, mostly near background
# Construct (chain): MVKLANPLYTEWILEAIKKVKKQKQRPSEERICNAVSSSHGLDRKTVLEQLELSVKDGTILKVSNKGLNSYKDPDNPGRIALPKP
Strand,E-score
GTCTGCGA,-0.0782
TGACCTCA,-0.232
CATTGAAG,-0.107
CCGCCATC,0.13
CAAACTCA,-0.212
CGACAACC,0.0295
AGTCGACC,0.00065
ACCAAGTC,-0.171
CTGTCTCC,-0.0122
CGCTCGAC,0.146
AGTAGGCA,-0.23
TAAATATA,-0.00921
CTTAATAC,-0.0724
ACAAATAT,-0.224
AAACAGCT,-0.157
GCAAGGCC,0.179
AGAAGGTG,-0.273
CCAGCGAG,-0.107
ATTGACGG,0.239
AGCACACC,-0.116
TCTAGAGA,-0.285
ATGTGGGA,-0.248
AGAGAAGC,0.0267
GTCTAAGA,-0.0565
AAGGGAAT,-0.0774

# Study 6 — target: ATF7, bZIP domain (human); method: DHFR protein complementation; medium: yeast; relative to: wild-type JUN-FOS pair; reading: higher = stronger binding
# Notes: single substitutions, most at no-binding floor
# Starting sequence: JUN, bZIP domain (human); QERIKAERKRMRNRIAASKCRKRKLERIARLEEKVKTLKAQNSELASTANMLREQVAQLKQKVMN; partner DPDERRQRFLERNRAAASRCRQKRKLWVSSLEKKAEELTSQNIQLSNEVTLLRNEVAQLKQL
Change,binding fitness
Q55S,-1.37 natural log
A49M,-1.25 natural log
R53H,-1.39 natural log
S43A,-0.668 natural log
T37D,-0.884 natural log
L45P,-1.51 natural log
V56Q,-1.4 natural log
N42F,-1.3 natural log
E32Q,-1.07 natural log
E33R,-1.15 natural log
A29F,-0.905 natural log
S47V,-0.799 natural log
T37R,-0.843 natural log
E33H,-1.16 natural log
R30L,-0.807 natural log
E54K,-1.1 natural log
L45W,-1.49 natural log
L52R,-1.4 natural log
S47Q,-0.84 natural log

# Mixed results — method: cross-linking MS; medium: cell fractions; with: DSSO
Substance,partner,cross-linked residues
"SF3A3 (Homo sapiens, UniProt Q12874)","SF3B3 (Homo sapiens, UniProt Q15393)",K496 to K974
"UBE2O (Homo sapiens, UniProt Q9C0C9)","PSAT1 (Homo sapiens, UniProt Q9Y617)",K801 to K363

# A few entries again (study 3):
Strand,E-score
ACCCCAAG,-0.249
AGGGGGAG,-0.21
CGCAAAGA,0.0421
AGGAGGCG,-0.221
CTATCACA,0.197
CACGTTCG,-0.0644
CTGCGCAG,-0.208
ACTCACCT,-0.192
GGCTTCCC,-0.212
AAATATCT,0.326
TCCCTCCA,-0.213
CCGCGGGC,-0.376
ATTCCCAC,0.02
